{"data": "Results from different studies", "note": "A part holds a random share of what one study measured. Positions count from the first letter of the parent shown.", "sequence of UniProt P78368 (whole entry, looked up)": "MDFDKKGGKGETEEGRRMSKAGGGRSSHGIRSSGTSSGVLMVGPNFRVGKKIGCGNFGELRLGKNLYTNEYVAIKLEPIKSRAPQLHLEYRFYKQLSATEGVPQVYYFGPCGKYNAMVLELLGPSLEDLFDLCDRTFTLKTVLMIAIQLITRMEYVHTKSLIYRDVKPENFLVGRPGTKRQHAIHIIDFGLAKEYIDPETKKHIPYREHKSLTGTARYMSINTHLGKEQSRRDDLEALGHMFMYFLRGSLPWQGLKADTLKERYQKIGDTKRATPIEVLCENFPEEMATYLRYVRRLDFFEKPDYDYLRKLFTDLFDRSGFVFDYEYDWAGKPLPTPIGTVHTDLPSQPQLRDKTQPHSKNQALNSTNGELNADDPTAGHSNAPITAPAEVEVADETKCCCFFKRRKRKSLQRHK"}
{"data": "Series 1", "target": "CEP164, C-terminal peptide (human)", "method": "DHFR complementation, deep sequencing", "medium": "yeast", "setting": "single substitutions, model-inferred values", "reference": "wild type", "direction": "higher = weaker binding", "starting sequence": "PDZK1, PDZ domain 2 (human); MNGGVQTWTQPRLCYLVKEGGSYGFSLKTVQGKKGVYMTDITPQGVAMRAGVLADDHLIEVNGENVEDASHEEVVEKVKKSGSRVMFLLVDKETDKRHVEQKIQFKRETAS; partner HNRVKVYRF"}
{"Variant": "G4W", "binding free energy change [kcal/mol]": 0.113}
{"Variant": "T94S", "binding free energy change [kcal/mol]": -0.123}
{"Variant": "Q31R", "binding free energy change [kcal/mol]": 0.0474}
{"Variant": "E19T", "binding free energy change [kcal/mol]": 0.035}
{"Variant": "V90P", "binding free energy change [kcal/mol]": 1.01}
{"Variant": "K106T", "binding free energy change [kcal/mol]": -0.16}
{"Variant": "K34D", "binding free energy change [kcal/mol]": 0.318}
{"Variant": "K80G", "binding free energy change [kcal/mol]": 0.491}
{"data": "Series 2", "target": "RING finger protein unkempt homolog, zinc fingers 1-6, SBP tag (UNK, Homo sapiens, UniProt Q9C0B0, residues 30-357)", "method": "RNA Bind-n-Seq", "molecule type": "RNA", "medium": "in vitro", "concentration": "100 nM", "setting": "RNA with constant flanks, vertebrate orthologous sites, ends assumed", "reference": "input RNA pool", "direction": "higher = stronger binding", "shared flanks, not repeated": "GGGAGUUCUACAGUCCGACGAUC … CAACAGAGGAUUGAGCAUCA", "sequence of UniProt Q9C0B0 (30-357, looked up)": "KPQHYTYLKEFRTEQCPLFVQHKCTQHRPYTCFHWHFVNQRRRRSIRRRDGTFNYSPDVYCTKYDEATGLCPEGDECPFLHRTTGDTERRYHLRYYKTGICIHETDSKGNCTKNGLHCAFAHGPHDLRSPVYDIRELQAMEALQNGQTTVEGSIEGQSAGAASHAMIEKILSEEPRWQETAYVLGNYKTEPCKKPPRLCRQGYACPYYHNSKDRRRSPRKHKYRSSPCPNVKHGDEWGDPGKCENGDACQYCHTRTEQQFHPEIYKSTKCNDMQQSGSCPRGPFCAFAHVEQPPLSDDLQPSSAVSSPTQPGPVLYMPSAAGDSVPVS"}
{"Sequence": "UCUAAACAACUUUAAAGAUGCUUCCUUCUAUGAUGCUUUAGCUCUUCACAUAUUUAAUCACAUUUAUGUAUCUUUUUUAUAUCAGCAGUGUCAAUUCAGAGGGAGCCAUUGGGUGAUUAG", "bound/input enrichment": "0.453 ratio"}
{"Sequence": "AGAACAUCUUAACCAAGAAUCUGAAAGUAGAAGUACAGGACCAUGGUUAUCUUCUUCACUUAGAAAUAGAUGCACACCCUUGUUCUCUAGAAGGAGACGAGAGGGACGAGAUGAAUCUUC", "bound/input enrichment": "0.401 ratio"}
{"Sequence": "AAAUCUACUUCAUGCCUUGGACUCCAUACAGGACAGACACUUUGAUUGAGUACUCCUCCCUGGAUGACUUCCAAAAUGGCCGGCAAACCAUUACCUACAAGCUGCCUCACCGGGUGGAUG", "bound/input enrichment": "0.39 ratio"}
{"Sequence": "CCUGUAAUAAUAAACCAAUUUUUUUUUCUUAAUGUCAAUGUAGAAUUCUUUUGCCCUGUAUCAAAAAUAGAGGUUUCAAAGCAAGUGAUUUGGAGUGUGCAAAUGAGUUUUCACAUGUUA", "bound/input enrichment": "0.896 ratio"}
{"Sequence": "GAGUGCUUAAACCGCCAACAGUUAGAAGAUGUUAUUUAUUUGUGUCUGUAAGUUUGUACAUAGUAAUGCCAGCCUUGUUGCUGAAUUUUUUAUGUGGGGGGAGAUGAGUUUGAAUUUUGU", "bound/input enrichment": "1.7 ratio"}
{"Sequence": "UAAUGCAAUGGUUGAAGGCUCUGAGCUCAAAAAGGUUCGGUCCAAUUCUAGAGUAUAUCACCGAUACUUUCUUUUAGAUGCAGAUAUGCAGUCCCUGCAUUGGGAACCUUCAAAGAAGGA", "bound/input enrichment": "0.609 ratio"}
{"Sequence": "CAUCGGGUCACUCCUAUUACCAAGUAGCUGGAAUUGUGAAGGUCGGAGUAGUUGGAGUUUUAGCUUUGAUUCCUGAUUUGUUUGUAUUACUAUCCCUGUGUAUAAAUUAUUGACCAUGUU", "bound/input enrichment": "0.717 ratio"}
{"Sequence": "GUGAGGGUCUAGUGACCACUCACUGUUAUGUCUGGUAUCUGUAAACACUCUUUUGGUUCUUAGUCUUUUUCUUGUAUAAUUGAUGUUCUUUAAAAUUGUUAAUGUAUAACAGGGCUUAUG", "bound/input enrichment": "1.05 ratio"}
{"data": "Single results of other studies"}
{"Compound": "CCC1NC(=O)c2cc(S(N)(=O)=O)c(Cl)cc2N1 (stereo not shown)", "target or system": "mouse MPNST tumor cells", "test": "high-content nuclear imaging, measured: cell number", "conditions": "10 µM, 12 h, mean of 2 replicates", "how to read": "reference: plate mean, higher = more cells", "quantity": "nuclei count", "value": "1.01 z-score"}
{"Compound": "CO[C@H]1CC[C@H](CNc2ccc(S(=O)(=O)NC(=O)c3ccc(N4CCN(CC5=C(c6ccc(Cl)cc6)CC(C)(C)CC5)CC4)cc3Oc3cnc4[nH]ccc4c3)cc2[N+](=O)[O-])CC1", "target or system": "Casein kinase I isoform gamma-2 (CSNK1G2, Homo sapiens, UniProt P78368)", "test": "cell-free assay, competition with immobilised ligand", "conditions": "1 µM", "quantity": "remaining binding", "value": "80%"}
{"Compound": "O=P(O)(O)C(O)(Cc1cccnc1)P(=O)(O)O", "target or system": "mouse MPNST tumor cells", "test": "high-content nuclear imaging, measured: cell number", "conditions": "10 µM, 12 h, mean of 2 replicates", "how to read": "reference: plate mean, higher = more cells", "quantity": "nuclei count", "value": "1.09 z-score"}
